Assay results collected from several papers.
Values joined by “and” are separate records of one study, mostly repeats; a detail may differ. Numbers after ± are the reported error.
ALB: Albumin (ALB, Homo sapiens, UniProt P02768)
Sequence of UniProt P10632 (whole entry, looked up): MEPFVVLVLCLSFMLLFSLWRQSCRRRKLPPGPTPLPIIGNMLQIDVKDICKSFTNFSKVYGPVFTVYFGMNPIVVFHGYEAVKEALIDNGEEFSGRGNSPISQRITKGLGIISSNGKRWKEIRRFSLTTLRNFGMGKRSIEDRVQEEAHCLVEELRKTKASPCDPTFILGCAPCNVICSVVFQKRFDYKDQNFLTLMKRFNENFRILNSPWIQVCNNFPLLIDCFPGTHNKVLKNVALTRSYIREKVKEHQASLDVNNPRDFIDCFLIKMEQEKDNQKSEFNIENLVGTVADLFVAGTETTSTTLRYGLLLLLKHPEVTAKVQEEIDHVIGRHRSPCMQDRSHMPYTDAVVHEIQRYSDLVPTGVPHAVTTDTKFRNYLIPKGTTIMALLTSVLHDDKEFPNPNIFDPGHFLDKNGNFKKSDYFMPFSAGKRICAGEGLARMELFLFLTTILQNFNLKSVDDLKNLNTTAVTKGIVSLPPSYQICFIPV

SMILES	tested on	test	test system	conditions	how to read	quantity	result
O=C1C2CC3CC1CC(C(=O)N1CCN(c4ccc([N+](=O)[O-])c5ncccc45)CC1)(C3)C2	Salmonella typhimurium	Ames test	TA1535	0.02 µg/well, without S9 activation	–	revertant colony count	7 colonies/well
N[C@@H](CNC(=O)N[C@@H](CS)C(=O)NCC(=O)O)C(=O)O	RPMI-2650	–	–	B-to-A, air-liquid interface	–	apparent permeability	9 ×10⁻⁶ cm/s
C=C(NC(=O)c1csc(-c2nc3c(cc2O)-c2nc(cs2)C(=O)NC(C(C)O)C(=O)NC(=C(C)OC)c2nc(cs2)C(=O)NC2c4nc(cs4)C(=O)NC(COC(=O)c4c5c6c(cccc6n4O)COC(=O)C(OC4CC(C)(O)C(N(C)C)C(C)O4)C2OC5)c2nc-3cs2)n1)C(N)=O (stereo not shown)	–	–	ICR mice, Streptococcus pneumoniae ATCC 49169 infected, immunocompromised, blood	intravenous, 8 mg/kg/day twice daily	–	AUC(0-t)	773 ng·h/mL
O=C(Nc1cnccc1-c1ccc([18F])cc1)c1ccnc(NC(=O)C2CC2)c1	–	–	FVB/NJ mice (both sexes), lung	intravenous, dose not given, 120 min, added: tariquidar 15 mg/kg i.v. pre-dose	–	SUV	0.41
Nc1nc2cc(C(=O)c3ccc(F)cc3)ccc2[nH]1	Salmonella typhimurium	Ames preincubation test	TA100	39.0 µg/plate, without S9	–	revertants	129 revertants/plate
O=C(OC[C@@]1(O)C(=O)C=C[C@H]2[C@@H]1[C@H]1C=C[C@@H]2C(=O)[C@]1(O)COC(=O)c1ccccc1)c1ccccc1	K562	cell growth or viability, MTT	–	12.5 µg/mL	–	viability	86.9%
CN1CCN(c2ccc3[nH]c(-c4ccc5[nH]c(-c6ccc(OCCCCNC(=O)c7ccc8c(c7)C7(OC8=O)c8ccc(N(C)C)cc8C(C)(C)c8cc(N(C)C)ccc87)cc6)nc5c4)nc3c2)CC1	ALB	–	PBS	1 µM, 1 h, added: 25 mg/mL albumin	–	fluorescence quantum yield	0.236 ± 0.009
CNC(=O)C1CCCN(C(=O)C2CC3CCC2N3C(=O)[C@@H]2C[C@@H](O)CN2C(=O)NCc2cccc(Cl)c2F)C1 (mixture of isomers)	Cytochrome P450 2C8 (CYP2C8, Homo sapiens, UniProt P10632)	preincubation with NADPH	human	0.617 µM	relative to: negative control	remaining activity	97.2% and 82.7% and 77.4%
COc1cccc(OC)c1-c1cc(C(=O)NC2(C(=O)O)C3CC4CC(C3)CC2C4)nn1-c1ccc(C(=O)N(C)CCOCCOCCN(C)C(=O)[C@H](CCCCNC(=O)[C@H](CC(C)C)NC(=O)C2OC2C(=O)O)NC(=O)CN2CCN(CC(=O)[O-])CCN(CC(=O)[O-])CCN(CC(=O)[O-])CC2)cc1C(C)C.[177Lu+3] (mixture of isomers)	HT-29 tumour model	–	host not given, stomach	4 h, tumour-bearing	–	tracer uptake	0.83 %ID/g
CC(C)Cc1ccc(C(C)C(=O)N[C@@H](CCCCNC(=O)CCOCCOCCOCCOCCOCCOCCNC(=O)CN2CCN(CC(=O)[O-])CCN(CC(=O)[O-])CCN(CC(=O)[O-])CC2)C(=O)Nc2cccc3c(C(=O)NCC(=O)N4CC(F)(F)C[C@H]4C#N)ccnc23)cc1.[177Lu+3] (stereo partly shown)	U-87 MG tumour model	–	host not given, blood	24 h, tumour-bearing	–	tracer uptake	0.62 %ID/g
O=C1NC2(CC2)COc2ncc(F)cc2[C@H]2COCCN2c2ccn3ncc1c3n2	Salmonella typhimurium	Ames test	TA1535	50 µg/plate, 48 h, added: without S9	–	revertant colonies	6 ± 1 revertants/plate
CC(C)OCCOCc1ccc(OCC(O)CN(N=O)C(C)C)cc1 (stereo not shown)	Salmonella typhimurium	Ames test	TA1537	1580 µg/plate, 30 % rat S9	relative to: solvent control	revertant fold increase	1.1 fold
Cc1nc(Nc2ncc(C(=O)Nc3c(C)cccc3Cl)s2)cc(N2CCN(C(=O)CCOCCNC(=O)CN)CC2)n1	K562	cell growth or viability, CCK-8	–	500 pM	–	viability	90% and 92%
N#C[C@@H]1CC(F)(F)CN1C(=O)CNC(=O)c1ccnc2c(NC(=O)[C@H](CCCCNC(=O)CCOCCOCCOCCOCCOCCOCCNC(=O)CN3CCN(CC(=O)[O-])CCN(CC(=O)[O-])CCN(CC(=O)[O-])CC3)NC(=O)CCCc3ccc(I)cc3)cccc12.[177Lu+3]	U-87 MG tumour model	–	host not given, bone	1 h, tumour-bearing	–	tracer uptake	6.69 %ID/g
N#C[C@@H]1CCCN1C(=O)CNC(=O)c1ccnc2ccc(OCCCN3CCN(C(=O)CCc4ccc5c(c4)CN4CCN6CC(=O)[O][68Ga-]([O]C(=O)C4)([O]5)[O]c4ccc(CCC(=O)N5CCN(CCCOc7ccc8nccc(C(=O)NCC(=O)N9CCC[C@H]9C#N)c8c7)CC5)cc4C6)CC3)cc12	U-87 MG tumour model	–	host not given, bone	2 h, tumour-bearing	–	tracer uptake	5.02 %ID/g
CCN(CC)CC#CCNc1ccnc2cc(Cl)ccc12	Salmonella typhimurium	mini-Ames test	TA102	62.5 µg/well, with rat liver S9	–	revertants per well	71
COc1cccc(OC)c1-c1cc(C(=O)NC2(C(=O)O)C3CC4CC(C3)CC2C4)nn1-c1ccc(C(=O)N(C)CCOCCN(C)C(=O)[C@H](CCCCNC(=O)[C@H](CC(C)C)NC(=O)C2OC2C(=O)O)NC(=O)CN2CCN(CC(=O)[O-])CCN(CC(=O)[O-])CCN(CC(=O)[O-])CC2)cc1C(C)C.[177Lu+3] (mixture of isomers)	HT-29 tumour model	–	host not given, bone	4 h, tumour-bearing	–	tracer uptake	0.61 %ID/g
CN(C)c1ccc2c(c1)C(C)(C)c1cc(N(C)C)ccc1C21OC(=O)c2c(C(=O)O)cccc21	ALB	binding, fluorescence titration	PBS	–	–	Kd	46 ± 11 µM
N#C[C@@H]1CC(F)(F)CN1C(=O)CNC(=O)c1ccnc2c(NC(=O)[C@@H](N)CCCCNC(=O)CCOCCOCCOCCOCCOCCOCCNC(=O)CN3CCN(CC(=O)[O-])CCN(CC(=O)[O-])CCN(CC(=O)[O-])CC3)cccc12.[177Lu+3]	U-87 MG tumour model	–	host not given, pancreas	48 h, tumour-bearing	–	tracer uptake	0.05 %ID/g
COC(=O)Nc1nc2cc(C(O)c3ccc(F)cc3)ccc2[nH]1 (stereo not shown)	Salmonella typhimurium	Ames preincubation test	TA98	218.8 µg/plate, without S9	–	revertants	22 revertants/plate
CCc1c(-c2ccc3[nH]ncc3c2)cnc(N)c1-c1ccc(O)cc1	CHP-212 resistant sublines (heterozygous USP7 V517F)	cell viability	–	0.7812 µM	–	viability	108% and 107%
O=C(Oc1cc(OC(=O)c2cc(O)c(O)c(O)c2)c2ccccc2c1)c1cc(O)c(O)c(O)c1	HSV-2 strain 333	viral DNA replication, qPCR	Vero	–	relative to: CC50 over IC50	therapeutic index	24.2

Repeated from above:
SMILES	tested on	test	test system	conditions	how to read	quantity	result
N#C[C@@H]1CC(F)(F)CN1C(=O)CNC(=O)c1ccnc2c(NC(=O)[C@@H](N)CCCCNC(=O)CCOCCOCCOCCOCCOCCOCCNC(=O)CN3CCN(CC(=O)[O-])CCN(CC(=O)[O-])CCN(CC(=O)[O-])CC3)cccc12.[177Lu+3]	U-87 MG tumour model	–	host not given, pancreas	48 h, tumour-bearing	–	tracer uptake	0.05 %ID/g
COC(=O)Nc1nc2cc(C(O)c3ccc(F)cc3)ccc2[nH]1 (stereo not shown)	Salmonella typhimurium	Ames preincubation test	TA98	218.8 µg/plate, without S9	–	revertants	22 revertants/plate
CCc1c(-c2ccc3[nH]ncc3c2)cnc(N)c1-c1ccc(O)cc1	CHP-212 resistant sublines (heterozygous USP7 V517F)	cell viability	–	0.7812 µM	–	viability	108% and 107%
